Measured values from different studies.
Every numbered part comes from another study and shows a few of its results, in no order. Substitutions count along the parent as printed.

Study 1 — method: RNA Bind-n-Seq; molecule type: RNA; sample: in vitro; tested at: not given; notes: RNA with constant flanks, ends assumed; reference: input RNA pool; direction: higher = stronger binding
Target: RING finger protein unkempt homolog, zinc fingers 1-6, GST-SBP tag (UNK, Homo sapiens, UniProt Q9C0B0, residues 30-357)
All sequences stand within: GGGAGUUCUACAGUCCGACGAUC … CAACAGAGGAUUGAGCAUCA
Target sequence (chain): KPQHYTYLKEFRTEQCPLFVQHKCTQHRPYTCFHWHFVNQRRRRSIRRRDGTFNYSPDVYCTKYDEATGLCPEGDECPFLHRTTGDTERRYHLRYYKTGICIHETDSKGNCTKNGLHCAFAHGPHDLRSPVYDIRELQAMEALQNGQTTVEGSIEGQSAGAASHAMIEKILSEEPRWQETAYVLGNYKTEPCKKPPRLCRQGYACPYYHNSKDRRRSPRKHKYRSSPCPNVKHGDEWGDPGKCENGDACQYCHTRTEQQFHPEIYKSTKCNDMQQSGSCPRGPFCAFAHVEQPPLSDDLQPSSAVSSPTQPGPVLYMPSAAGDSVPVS
Sequence | bound/input enrichment [ratio]
AAUUUGUUGUCUGCAAGCAAAUUAUAUAAUAAUAUUACCUUCGAAGAACUUGGAGCUCUUUCCGAGAUCCCUGCAGCUAAGGCGGAAAAGAUAGCAUCUCAAAUGAUAACCGAAGGACGU | 0.421
GCUAUGCAGCUAUAUUCUGUAGAUAGGAAAGUGUCUCAGCCCAUUGAAGGACAUGCAGCCCGCUUUGCACAGUUUAAGAUGGAAGGAAAUGCAGAAGAAUCAACGUUAUUUUGUUUUGCA | 0.638
UAUCAUCCUGAUAAGAAUCCAAAUGCAGGAGACAAAAAUUAAAUGGAUUCUGGAUUCCUGCCGCUUCUCCCCACUCUUCUACUUGAAAAUGCAAUUAUUUUUAUUUUUACCUUUUCUUUA | 0.558
UAACCACAUCAAGAUGGUUGGGAAGCUGAAGCAGAACUUACUCUUGGCGUGUCUGGUGAUCCGUUCUGUGACCGUGUUUUACCUGGGCCAGCAUGCCAUGGAGUGCCAUCACCGAAUAGA | 0.135
ACCAUUGUUGACACCGUGGGAUUUGGAGACCAGAUAAAUAAAGAUGACAGCUAUAAGCCGACCGCCGAAUAUAUUGAUGCCCAGUUCGAGGCCUACCUGCAAGAGGAAUUGAAGAUUAAA | 0.462
UUGAUCAGGGAAGACUUAGGGUUCAGAUUUAUAUCUGAGCAGGUCAGUCACCACCCUCCUAUCCGCGCAUUUUAUUCAGAAGGUCUCAAUCAAGACUUCAGGUUCCACGGUUCCAUCUAC | 0.193
UUUCAGGAUUCUUCUGGCACCAAGGCGAACUCUUCUUGGUACUUCUGACAAUACAGAUCUUCCGGACAAAUUUACCCGCUGAAUGCUUUGGGGCAGGAGGAAAGUAAAACCUUGGAAGCA | 0.119
GAGACGACAAAAAGCUGUUUUUCCUUUUGUGACUCCAGAGCUGGAAAGCCUUCCCAGCUCCACCGUGUCUGUACCUGUCUUGUGCUUUGGGGUGUCCUUCAUGUGGCCAUUCUGCCUGCA | 0.0968
CCUACAAUAAUGAAAACCUACAGGAAUUUUUUUAUUUUUCAUUUUCUUCUUAGGCACCGUCCGUCUUUUUCCCCCAGGCAGAUGAUUCUGAGUGUGGGAGUGUGUCUGCACAUGUUAAAA | 0.478
GGCAGCCGUUUCUUGCCGGCCCUGGGAGUCUGCUAUGGCGUUCCCUCACCUACAACAGCCCCGUUUCCUUCUGGCUAGCCUGAAAGCUGACUCUAUAAAUAAGCCCUUUGCACAACGUUG | 0.237
ACCCACACUGAUGAGGACCCCCAGAUGUCAAUGGUUGAAGACUGUCAUGCUUCAGAGCAUAACCGCCCGAUAUCCUCCAUUCCGUCUCAUCCUAGCCAGUCAGUCCGCUCUGUCAACAGC | 0.205

Study 2 — target: CCNB2, cyclin fold, Cln2 fusion (human); method: yeast growth competition, sequencing; sample: yeast; notes: weak parent motif; reference: not given; direction: higher = stronger binding
Starting sequence: SLBP docking peptide (human); ARYKRKLLINDFG
Variant | normalised enrichment score
ARYKRKLLIRDFG [N10R] | 0.0402
ARYKRKLLIADFG [N10A] | 0.488
ARYKRKLLICDFG [N10C] | 0.235
ARHKRKLLINDFG [Y3H] | 0.281
ARYKSKLLINDFG [R5S] | 0.842
ARYKRILLINDFG [K6I] | 0.52
ERYKRKLLINDFG [A1E] | -0.03
ARYKRKLLINDIG [F12I] | 0.505
AMYKRKLLINDFG [R2M] | 0.574
ARYKNKLLINDFG [R5N] | 0.732
ARYKRKLGINDFG [L8G] | 0.725
AIYKRKLLINDFG [R2I] | 0.656
PRYKRKLLINDFG [A1P] | 0.409
ARYKRKLLINKFG [D11K] | 0.347
ARVKRKLLINDFG [Y3V] | 0.455
ARYKRKLDINDFG [L8D] | 0.318

Study 3 — method: aptamer microarray, sandwich; molecule type: DNA with 2'F-ANA; sample: in vitro; tested at: 200 nM; with: Cy3 exosite-II aptamer, 400 nM; direction: higher = stronger binding; sequence: GGTTGGTGTGGTTGG
Target: Prothrombin, mature alpha-thrombin (F2, Homo sapiens, UniProt P00734)
Notes: whole 15-mer aptamer, many near background
Modification | mean fluorescence intensity
2'F-ANA at 1 2 5 7 10 12 15 | 46.7 a.u.
2'F-ANA at 1 3 5 6 10 13 | 131 a.u.
2'F-ANA at 2 8 10 11 13 14 15 | 74.1 a.u.
2'F-ANA at 5 6 7 8 9 10 11 13 14 | 59.5 a.u.
2'F-ANA at 3 4 6 10 13 | 218 a.u.
2'F-ANA at 4 5 11 12 14 15 | 42.3 a.u.
2'F-ANA at 2 3 6 7 9 10 11 12 13 15 | 310 a.u.
2'F-ANA at 1 2 4 6 7 10 | 47.1 a.u.
2'F-ANA at 2 4 5 8 10 13 | 45 a.u.
2'F-ANA at 1 4 7 8 9 10 11 14 | 49 a.u.
2'F-ANA at 3 4 6 7 8 9 14 | 324 a.u.
2'F-ANA at 2 3 4 5 8 12 13 15 | 141 a.u.
2'F-ANA at 2 3 4 6 7 10 13 14 15 | 153 a.u.
2'F-ANA at 1 3 6 8 9 11 12 13 14 | 98.2 a.u.
2'F-ANA at 1 3 5 6 7 9 11 13 | 54.7 a.u.
2'F-ANA at 1 3 5 6 7 8 13 | 121 a.u.
2'F-ANA at 1 2 4 5 6 8 9 10 11 14 | 234 a.u.
2'F-ANA at 3 4 6 8 9 12 14 15 | 281 a.u.
2'F-ANA at 1 3 6 9 11 14 | 77.9 a.u.
2'F-ANA at 1 3 5 7 8 9 10 12 | 211 a.u.
2'F-ANA at 1 7 10 12 14 | 56 a.u.
2'F-ANA at 1 2 3 6 7 8 9 14 | 75.9 a.u.
2'F-ANA at 4 5 8 10 11 13 | 72.5 a.u.
2'F-ANA at 2 3 5 6 7 9 11 15 | 130 a.u.
2'F-ANA at 1 2 5 7 9 12 13 14 15 | 44.3 a.u.

Study 4 — method: universal PBM; molecule type: double-stranded DNA, one strand shown; sample: in vitro; tested at: not given; direction: higher = stronger binding
Target: Sal-like protein 4, full length isoform B (SALL4, Homo sapiens, UniProt Q9UJQ4-2, residues 1-616)
Notes: 8-mer, flanks averaged, mean of replicates
Target sequence (chain): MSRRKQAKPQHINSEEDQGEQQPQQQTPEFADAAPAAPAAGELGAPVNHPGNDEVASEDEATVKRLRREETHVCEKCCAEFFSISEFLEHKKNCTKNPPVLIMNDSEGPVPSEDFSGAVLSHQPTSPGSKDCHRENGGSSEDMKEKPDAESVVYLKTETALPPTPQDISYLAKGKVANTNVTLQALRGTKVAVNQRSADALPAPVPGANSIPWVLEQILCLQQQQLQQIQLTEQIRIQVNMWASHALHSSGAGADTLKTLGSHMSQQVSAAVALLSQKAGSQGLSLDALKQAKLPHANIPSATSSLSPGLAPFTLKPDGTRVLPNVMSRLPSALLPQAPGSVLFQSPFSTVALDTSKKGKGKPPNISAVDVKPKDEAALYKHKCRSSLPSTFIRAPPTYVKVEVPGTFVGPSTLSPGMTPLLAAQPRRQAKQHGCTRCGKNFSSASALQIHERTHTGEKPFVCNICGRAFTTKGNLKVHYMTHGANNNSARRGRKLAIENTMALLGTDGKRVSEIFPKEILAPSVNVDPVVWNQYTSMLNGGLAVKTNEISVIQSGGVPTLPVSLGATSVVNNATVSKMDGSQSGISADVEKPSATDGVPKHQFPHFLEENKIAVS
Sequence | E-score
GACGGTCC | -0.325
GACTAATA | 0.344
ACAAATAA | 0.294
CCCAAAAC | 0.137
GGAAGTTA | 0.149
CCTCTCTA | -0.173
CTCGTTTC | -0.0724
ATTACTAG | 0.28
CTAGCAGA | -0.101
CCGAAAAC | -0.0929
ATAACTGC | 0.308
TGATGACA | -0.0614
CGACTCGC | -0.147
AACATTGG | 0.0437
ACAGTAGA | 0.179
AATGCGGC | -0.144
TAACAAGA | 0.173
GTCCGTCA | 0.0257
AGGTTGCA | 0.121
CCGGAACA | -0.0791
CTCTCATC | -0.0598

Study 5 — method: protein binding microarray; molecule type: double-stranded DNA, one strand shown; sample: in vitro; tested at: not given; reference: not given; direction: higher = stronger binding
Target: Histone acetyltransferase KAT6A, winged helix 1, GST fusion (KAT6A, Homo sapiens, UniProt Q92794, residues 1-85)
Notes: 8-mer, flanks averaged, mean of 2 arrays, mostly near background
Target sequence (chain): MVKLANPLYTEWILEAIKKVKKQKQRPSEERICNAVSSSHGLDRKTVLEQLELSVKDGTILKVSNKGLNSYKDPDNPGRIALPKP
Sequence | E-score
AGAACGGC | 0.113
ATAGACAT | -0.223
AGCAATCC | -0.099
AGATTGTC | -0.0579
ATTTCTTG | -0.137
GTGGGAAA | -0.235
CCGACCGG | 0.375
CACCAGGG | -0.169
ATTCTAGG | -0.232
AACGGACT | 0.15
CGTAGAAA | -0.171
ATAACCAG | -0.186
CTATGGGA | -0.0649
CGGTAGGC | 0.154
AGAGAGTG | -0.0929
ACCAGGGA | -0.316
TCCAAAGA | -0.227
ACTTGGTA | -0.116
ATGGTAAT | -0.124
ACCAAATA | -0.301
CATACGAG | -0.116
ACTTAACG | 0.00709

Study 6 — method: RNA Bind-n-Seq; molecule type: RNA; sample: in vitro; tested at: 365 nM; reference: no-protein control; direction: higher = stronger binding
Target: RNA binding protein fox-1 homolog 2, RRM domain, GST-SBP tag (RBFOX2, Homo sapiens, UniProt O43251-10, residues 100-194)
Notes: natural RNA segment, single round, ends assumed
All sequences stand within: GGGAGUUCUACAGUCCGACGAUC … UGGAAUUCUCGGGUGCCAA
Residues (chain): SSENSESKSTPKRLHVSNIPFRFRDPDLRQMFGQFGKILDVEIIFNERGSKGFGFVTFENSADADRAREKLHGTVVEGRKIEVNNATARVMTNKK
Sequence | RBNS enrichment (R)
UCUUGGUCAGCCUCAGUGAUGGCCUGACCCCAGCUGUGAGGCCUUGUGAGCUAAGGCUGAAGAGACCUUGCCUGUGGGAGCUGGGGUGGUACCUGCCCCAACAGCCCCCC | 0.193
GACUCACCAUGGGCUGCUGGGGUGUCGGGAGAAGCCACACCCAACAUGCCCAUUAGCAGAGGCUGCUGCUGAUGUGGCAGCUGCUCCCUACCACCCGCCCUGGCUCCCCA | 0.444
UCAACGAUUAUAGAGAGCCUUUUCUGUCCAAGCUGUCUCAUUCCAGUCCUCUAACACCCCUUGAGACCAAUUCUGCCACUGUAUUUAGAAGCUUUGAGUUAAAGGAUUUG | 0.388
GCUGUGACAGUGACAGCUCAUUUCUCAGGCCUGGUUUGCUUUGAUGUAUUACUCUUCUUCUUUUAAUUUAUGUUAGAACGAGAAAAGCUUAAUACAACAGGUGCCCAGAA | 0.22
UCUUGCUAUCCCUGUGCUAGUUCCAUGUUUUAGAAGCAAAGUGAUACUGGGGAGGAGAGGAGGGCAAGUGAGAGGAGCCAGUGCCUCCUGAAGCCCUUGCUCCACUGCCA | 0.435
AGGUGGCCAAGGAUGCUGGAGCUGAAUCAGACGCUGACAGUUCUUCAGGCAUUUCUAUUUCACAAUCGAAUUGAACACAUUGGCCAAAUAAAGUUGAAAUUUUACCACCU | 0.742
ACCUUGCUUUUGUGAACACGUCACUGCAUAGGUUCUGAGAGGACCUGGCUGGGUUUAUUUAAGAGUGGGAGAGCAUCCAUUGUCCAAACUGAGAGCAGCAACAGCCCUCU | 2.75
AGCCUGGUUUCUGGUUGUGUUCUUCACUCAGGCCUCCAUGGGCAACAAUGGUUUCAGGAGAACUGUUUGUUUCUGUGUGAAUUGAGUUGACACACUCCAGUCCUGAGCUG | 0.343
ACUUGGAGGGGUUUAUUGACUCUCCCCCCCCCUCCCCCGCUCUGUGACUUUUUUUUUUUUCUUCUCCCCAUUGGGUUUGCCUGUCGCUAACUAGCAUAGGUCCCACAGAG | 1.09
UGGGCACUGCUUUUUCUUACUAAUGUGGUAGAUCUACACGAACAUUCUAGGCUGUUCUGCUCAGAGCGAGGAACCACUGCUCCUCAAUGGGGAGGGAACAUACCACCCAG | 0.22
AUCUUGGUUUGUCAGUUUAUCUUAAGCAUGUCAAUUCAUAAAAACAAGUCAUUUUUGUAUUUUUCAUCUUUAAGAAUGCUUAAAAAAGCUAAUCCCUAAAAUAGUUAGAU | 2.01
AUGAAGCAAACACAAUUGGUGACAAAGGUUGUCAAUCAUUUCUUCAAAAUUAUAAUGCAGUUCUAAUGGUCAGCAUAUUUUGAUAUUAAAUUUAAAGAUCACCUCUCUGC | 0.39
